Assay results of several laboratories.
Parts stem from different laboratories: compare values within a part only.

Sample 1
Target: Sox-I, HMG box (Salpingoeca helianthica)
Method: Spec-seq
Form: double-stranded DNA, one strand shown
Matrix: in vitro
Tested at: not given
Notes: whole probe, mean of replicates
Baseline: not given
Reading: lower = stronger binding
Shared flanks, not repeated: GAGTCGTCTCGTCAGCAC … CCGTAGAGCACTCAGGTC
Target sequence (chain): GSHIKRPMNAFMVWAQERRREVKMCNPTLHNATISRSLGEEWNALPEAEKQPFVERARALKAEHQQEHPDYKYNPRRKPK
Strand | relative binding energy [ln ratio]
ACCCGTT | 0.256
TACGGTT | 0.538
CATCACG | 0.721
ACCAGTT | -0.87
CATTTCC | 0.878

Sample 2
Target: Histone acetyltransferase KAT6A, both winged helices, GST fusion (KAT6A, Homo sapiens, UniProt Q92794, residues 1-181)
Method: protein binding microarray
Form: double-stranded DNA, one strand shown
Matrix: in vitro
Tested at: not given
Notes: 8-mer, flanks averaged, mean of 2 arrays, mostly near background
Baseline: not given
Reading: higher = stronger binding
Residues (chain): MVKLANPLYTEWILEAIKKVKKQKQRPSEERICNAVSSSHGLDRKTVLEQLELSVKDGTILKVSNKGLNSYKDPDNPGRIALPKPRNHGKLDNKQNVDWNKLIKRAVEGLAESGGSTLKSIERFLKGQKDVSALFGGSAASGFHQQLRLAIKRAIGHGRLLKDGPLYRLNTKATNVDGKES
Strand | E-score
ATAGCCCG | 0.145
TGTGAACA | -0.0366
GGACGTTA | 0.0544
ATTGCAAC | -0.077
AAATATGC | -0.0652

Sample 3
Target: Sal-like protein 4, full length isoform B (SALL4, Homo sapiens, UniProt Q9UJQ4-2, residues 1-616)
Method: universal PBM
Form: double-stranded DNA, one strand shown
Matrix: in vitro
Tested at: not given
Notes: 8-mer, flanks averaged, mean of replicates
Reading: higher = stronger binding
Strand | E-score
AGGCCACG | -0.227
AGGTTGGG | -0.165
TCTTACCA | -0.0174
AGATCTCC | -0.218
GGTAGACC | -0.164
ACGGGCTG | -0.224
CGAACCTA | -0.142

Single results of other studies
Molecule | target | assay | test system | setting | how to read | quantity | value
PhoQ, residues 284 288 289 292 302 303 ALASRC | PhoP, residues 12 14 15 18 19 LQHIR (Escherichia coli, UniProt P23836) | Sort-seq, refers to: YFP reporter | E. coli | PhoQ-PhoP variant library, with: 10 µM Mg2+ | baseline: high Mg2+ state, higher = stronger signaling | fold induction | 12.9

For quick reference, copied from above (sample 3):
Strand | E-score
TCTTACCA | -0.0174
CGAACCTA | -0.142
